Assay results gathered from unrelated publications.
Protocols differ between the studies behind these lines. ± marks the error that the study gave.
Target: Transporter (Slc6a2, Rattus norvegicus, UniProt Q63380)

CNC(C)C(=O)c1cccc(Cl)c1 (centres unmarked)  EC50 (substrate release, releaser; rat brain synaptosomes; added: [3H]MPP+): 19 nM
CC1NCCOC1c1ccc(F)cc1 (centres unmarked)  EC50 (concentration not given): 58 ± 7 nM
Cc1ccc([C@H]2OC(N)=N[C@H]2C)cc1 (racemic)  EC50 (substrate release, releaser, [3H]MPP+ release; rat brain synaptosomes; added: [3H]MPP+ 9 nM): 26.9 ± 5.9 nM
CNC(C)C(=O)c1ccc(C)cc1 (centres unmarked)  EC50 (substrate release, releaser; rat brain synaptosomes; added: [3H]MPP+): 63 nM
Cc1ccc([C@@H]2OC(N)=N[C@H]2C)cc1 (relative stereo)  EC50 (substrate release, releaser; rat brain synaptosomes; added: [3H]MPP+ 9 nM): 31.6 ± 4.6 nM
CNC(C)C(=O)c1ccccc1 (centres unmarked)  EC50 (substrate release, releasing agent; rat brain synaptosomes; added: [3H]MPP+): 23 nM
C[C@@H]1N=C(N)O[C@H]1c1ccc2c(c1)OCO2 (racemic)  EC50 (substrate release, releaser; rat brain synaptosomes; added: [3H]MPP+ 9 nM): 38.9 ± 4.7 nM
CC1NCCOC1c1ccccc1F (centres unmarked)  EC50 (concentration not given): 28 ± 3 nM
CC(N)Cc1c[nH]c2ccccc12 (centres unmarked)  EC50 (transmitter release, releaser; rat brain synaptosomes; added: [3H]MPP+): 112 ± 6 nM
CNC(C)Cc1ccc2ccoc2c1 (centres unmarked)  EC50 (transporter-mediated release, substrate; rat brain synaptosomes; 30 min, added: [3H]MPP+): 14 ± 2 nM
COc1ccc2c(c1)CC(N)C2 (centres unmarked)  EC50: 861 ± 118 nM
CNC(C)Cc1ccc2c(c1)OCO2 (single isomer, unassigned; (+))  EC50 (substrate release, releaser; rat brain synaptosomes; added: [3H]MPP+ 9 nM): 98.3 ± 15 nM
CNC(C)C(=O)c1ccccc1OC (centres unmarked)  EC50 (releaser): 339 nM
NC1Cc2ccccc2C1  EC50: 86 ± 13 nM

Some of these lines once more:
CNC(C)Cc1ccc2ccoc2c1 (centres unmarked)  EC50 (transporter-mediated release, substrate; rat brain synaptosomes; 30 min, added: [3H]MPP+): 14 ± 2 nM
Cc1ccc([C@@H]2OC(N)=N[C@H]2C)cc1 (relative stereo)  EC50 (substrate release, releaser; rat brain synaptosomes; added: [3H]MPP+ 9 nM): 31.6 ± 4.6 nM
